Assay results collected from several papers.
Every numbered part comes from another study and shows a few of its results, in no order. “And” joins repeats or separate records; there may be more than shown.
Sequence of UniProt Q99683 (whole entry, looked up): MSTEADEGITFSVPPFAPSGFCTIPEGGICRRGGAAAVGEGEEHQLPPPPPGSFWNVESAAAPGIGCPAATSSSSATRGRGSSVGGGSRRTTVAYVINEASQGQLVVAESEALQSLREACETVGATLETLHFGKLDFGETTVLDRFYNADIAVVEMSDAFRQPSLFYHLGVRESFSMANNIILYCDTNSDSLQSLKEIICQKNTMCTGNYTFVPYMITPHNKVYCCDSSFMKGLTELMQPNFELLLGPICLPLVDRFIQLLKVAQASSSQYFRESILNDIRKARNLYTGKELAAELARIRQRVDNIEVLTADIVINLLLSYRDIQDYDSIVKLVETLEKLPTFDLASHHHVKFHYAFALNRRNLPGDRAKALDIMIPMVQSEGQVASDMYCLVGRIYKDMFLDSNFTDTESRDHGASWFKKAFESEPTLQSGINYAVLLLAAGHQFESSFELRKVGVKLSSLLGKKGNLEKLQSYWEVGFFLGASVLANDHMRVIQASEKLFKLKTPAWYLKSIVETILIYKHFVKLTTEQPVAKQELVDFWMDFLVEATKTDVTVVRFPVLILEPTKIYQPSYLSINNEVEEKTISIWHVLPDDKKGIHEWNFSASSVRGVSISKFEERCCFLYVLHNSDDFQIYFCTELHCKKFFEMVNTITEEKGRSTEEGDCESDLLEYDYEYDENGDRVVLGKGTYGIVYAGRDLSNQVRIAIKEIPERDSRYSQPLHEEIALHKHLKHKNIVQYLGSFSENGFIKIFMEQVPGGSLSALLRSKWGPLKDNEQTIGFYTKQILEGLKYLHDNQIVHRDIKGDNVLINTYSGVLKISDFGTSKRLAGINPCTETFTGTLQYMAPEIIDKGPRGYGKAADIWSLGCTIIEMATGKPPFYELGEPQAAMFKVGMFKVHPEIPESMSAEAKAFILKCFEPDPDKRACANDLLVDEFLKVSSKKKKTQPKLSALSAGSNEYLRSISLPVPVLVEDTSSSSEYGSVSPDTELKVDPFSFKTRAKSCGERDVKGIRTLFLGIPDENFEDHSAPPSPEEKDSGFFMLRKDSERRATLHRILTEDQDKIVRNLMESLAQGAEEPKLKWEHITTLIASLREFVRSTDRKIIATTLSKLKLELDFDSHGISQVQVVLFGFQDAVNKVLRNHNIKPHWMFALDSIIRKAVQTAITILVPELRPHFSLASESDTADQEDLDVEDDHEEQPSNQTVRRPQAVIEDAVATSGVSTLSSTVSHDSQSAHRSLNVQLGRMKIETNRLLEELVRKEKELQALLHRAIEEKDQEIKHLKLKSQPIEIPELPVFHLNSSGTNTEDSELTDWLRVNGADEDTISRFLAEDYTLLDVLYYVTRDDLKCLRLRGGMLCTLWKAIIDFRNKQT
Sequence of UniProt Q9NSY1 (whole entry, looked up): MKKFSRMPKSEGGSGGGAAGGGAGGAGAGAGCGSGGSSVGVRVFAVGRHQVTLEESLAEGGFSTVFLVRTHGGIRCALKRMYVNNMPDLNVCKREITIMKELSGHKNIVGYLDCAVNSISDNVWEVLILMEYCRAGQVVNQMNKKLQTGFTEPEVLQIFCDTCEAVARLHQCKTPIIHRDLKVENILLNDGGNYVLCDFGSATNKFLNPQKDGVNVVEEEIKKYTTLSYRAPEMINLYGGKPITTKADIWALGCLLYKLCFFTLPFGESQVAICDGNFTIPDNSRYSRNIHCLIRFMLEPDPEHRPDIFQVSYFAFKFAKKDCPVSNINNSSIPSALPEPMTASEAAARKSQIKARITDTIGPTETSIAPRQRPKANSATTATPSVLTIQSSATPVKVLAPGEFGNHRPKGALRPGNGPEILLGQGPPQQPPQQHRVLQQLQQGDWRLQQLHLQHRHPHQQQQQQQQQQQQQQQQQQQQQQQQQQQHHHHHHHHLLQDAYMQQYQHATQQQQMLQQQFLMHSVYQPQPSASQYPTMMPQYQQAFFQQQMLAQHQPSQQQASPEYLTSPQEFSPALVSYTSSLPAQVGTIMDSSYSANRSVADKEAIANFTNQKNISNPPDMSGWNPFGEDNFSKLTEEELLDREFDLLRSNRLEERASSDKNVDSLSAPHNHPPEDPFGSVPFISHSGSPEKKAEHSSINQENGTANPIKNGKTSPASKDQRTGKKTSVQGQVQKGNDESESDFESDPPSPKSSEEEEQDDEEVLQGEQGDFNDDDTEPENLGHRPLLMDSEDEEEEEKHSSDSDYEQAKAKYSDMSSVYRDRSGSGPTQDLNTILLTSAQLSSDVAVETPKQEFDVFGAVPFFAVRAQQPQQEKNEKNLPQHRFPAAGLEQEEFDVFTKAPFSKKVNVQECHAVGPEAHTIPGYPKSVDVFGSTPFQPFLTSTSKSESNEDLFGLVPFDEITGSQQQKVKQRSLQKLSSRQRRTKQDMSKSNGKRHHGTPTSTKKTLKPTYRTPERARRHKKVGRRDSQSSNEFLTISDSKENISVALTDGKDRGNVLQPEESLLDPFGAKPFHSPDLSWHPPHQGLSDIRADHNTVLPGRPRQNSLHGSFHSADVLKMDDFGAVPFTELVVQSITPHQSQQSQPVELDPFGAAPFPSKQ
Sequence of UniProt P11362 (whole entry, looked up): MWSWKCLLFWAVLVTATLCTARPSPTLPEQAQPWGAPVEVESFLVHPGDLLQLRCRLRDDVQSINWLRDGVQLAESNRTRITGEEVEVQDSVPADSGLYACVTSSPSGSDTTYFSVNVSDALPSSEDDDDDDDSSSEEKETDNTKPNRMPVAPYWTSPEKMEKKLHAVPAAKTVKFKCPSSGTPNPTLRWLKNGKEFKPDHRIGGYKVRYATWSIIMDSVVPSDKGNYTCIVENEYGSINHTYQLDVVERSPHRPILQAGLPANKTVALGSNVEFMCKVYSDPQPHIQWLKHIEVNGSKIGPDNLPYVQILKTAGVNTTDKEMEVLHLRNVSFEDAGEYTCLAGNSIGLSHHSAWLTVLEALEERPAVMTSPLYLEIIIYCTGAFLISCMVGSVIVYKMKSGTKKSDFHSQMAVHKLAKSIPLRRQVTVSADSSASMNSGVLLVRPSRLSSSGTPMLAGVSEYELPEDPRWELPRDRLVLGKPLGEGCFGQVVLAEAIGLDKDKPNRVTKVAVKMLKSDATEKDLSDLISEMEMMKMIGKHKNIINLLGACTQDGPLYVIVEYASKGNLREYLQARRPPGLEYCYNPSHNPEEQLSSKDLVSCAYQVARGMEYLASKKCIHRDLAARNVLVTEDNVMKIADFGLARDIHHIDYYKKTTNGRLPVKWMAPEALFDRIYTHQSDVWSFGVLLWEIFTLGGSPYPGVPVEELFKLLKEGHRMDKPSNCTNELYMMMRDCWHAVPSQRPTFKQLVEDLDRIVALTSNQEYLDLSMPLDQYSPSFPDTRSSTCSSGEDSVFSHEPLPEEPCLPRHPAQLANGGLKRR
Sequence of UniProt P36507 (whole entry, looked up): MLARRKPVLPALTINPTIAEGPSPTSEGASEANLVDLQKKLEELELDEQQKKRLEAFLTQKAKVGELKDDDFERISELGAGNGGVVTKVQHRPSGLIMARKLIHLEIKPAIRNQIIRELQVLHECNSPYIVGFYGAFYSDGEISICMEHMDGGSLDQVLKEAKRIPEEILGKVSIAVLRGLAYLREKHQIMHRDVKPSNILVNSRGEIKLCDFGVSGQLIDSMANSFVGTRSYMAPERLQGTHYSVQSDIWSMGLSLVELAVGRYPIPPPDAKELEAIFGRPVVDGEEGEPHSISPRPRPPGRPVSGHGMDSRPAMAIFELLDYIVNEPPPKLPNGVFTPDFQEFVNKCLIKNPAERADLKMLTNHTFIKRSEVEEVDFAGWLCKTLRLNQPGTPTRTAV
Sequence of UniProt P22607 (whole entry, looked up): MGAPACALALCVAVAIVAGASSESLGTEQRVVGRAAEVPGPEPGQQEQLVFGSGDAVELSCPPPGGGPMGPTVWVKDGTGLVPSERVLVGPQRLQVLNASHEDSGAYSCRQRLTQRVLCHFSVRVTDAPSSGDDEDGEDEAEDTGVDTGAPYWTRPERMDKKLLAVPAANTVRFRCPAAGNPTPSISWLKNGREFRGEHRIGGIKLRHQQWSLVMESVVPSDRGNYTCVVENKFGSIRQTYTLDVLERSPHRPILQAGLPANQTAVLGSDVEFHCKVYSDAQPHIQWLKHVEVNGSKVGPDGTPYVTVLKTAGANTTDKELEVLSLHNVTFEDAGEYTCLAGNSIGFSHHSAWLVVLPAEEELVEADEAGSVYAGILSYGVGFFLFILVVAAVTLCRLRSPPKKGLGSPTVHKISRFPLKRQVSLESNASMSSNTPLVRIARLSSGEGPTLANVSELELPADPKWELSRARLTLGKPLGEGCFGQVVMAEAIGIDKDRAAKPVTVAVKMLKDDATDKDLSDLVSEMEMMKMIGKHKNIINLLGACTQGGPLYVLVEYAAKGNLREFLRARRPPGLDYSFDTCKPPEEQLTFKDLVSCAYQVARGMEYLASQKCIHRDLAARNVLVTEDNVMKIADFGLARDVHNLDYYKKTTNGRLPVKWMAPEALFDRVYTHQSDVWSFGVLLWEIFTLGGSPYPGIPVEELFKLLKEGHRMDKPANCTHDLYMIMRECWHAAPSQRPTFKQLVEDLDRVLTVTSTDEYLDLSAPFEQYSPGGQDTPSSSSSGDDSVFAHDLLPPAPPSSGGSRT

Series 1
Structure (SMILES): Nc1ccc2ncnc(NCCc3ccc(Oc4ccccc4)cc3)c2c1
Read-out: enzyme activity
Mode: inhibitor
Tested at: 0.5 µM
Reference: control
| target | remaining activity [%] |
| --- | --- |
| CSNK1G2 (Homo sapiens, UniProt P78368) | 100 |
| RPS6KA2 (Homo sapiens, UniProt Q15349) | 100 |
| MAP2K2 (Homo sapiens, UniProt P36507) | 94.9 |
| NEK1 (Homo sapiens, UniProt Q96PY6) | 102 |
| ACVR1B (Homo sapiens, UniProt P36896) | 101 |
| EPHA3 (Homo sapiens, UniProt P29320) | 102 |
| MAP3K5 (Homo sapiens, UniProt Q99683) | 105 |
| GSK3B (Homo sapiens, UniProt P49841) | 102 |
| ULK3 (Homo sapiens, UniProt Q6PHR2) | 112 |
| FGFR1 (Homo sapiens, UniProt P11362) | 86.3 |
| FGFR3 (Homo sapiens, UniProt P22607) | 101 |
| TEK (Homo sapiens, UniProt Q02763) | 99 |
| GRK7 (Homo sapiens, UniProt Q8WTQ7) | 104 |
| TAOK2 (Homo sapiens, UniProt Q9UL54) | 102 |

Series 2
Target: Calcium/calmodulin-dependent protein kinase type II subunit alpha (CAMK2A, Homo sapiens, UniProt Q9UQM7)
Sequence of UniProt Q9UQM7 (whole entry, looked up): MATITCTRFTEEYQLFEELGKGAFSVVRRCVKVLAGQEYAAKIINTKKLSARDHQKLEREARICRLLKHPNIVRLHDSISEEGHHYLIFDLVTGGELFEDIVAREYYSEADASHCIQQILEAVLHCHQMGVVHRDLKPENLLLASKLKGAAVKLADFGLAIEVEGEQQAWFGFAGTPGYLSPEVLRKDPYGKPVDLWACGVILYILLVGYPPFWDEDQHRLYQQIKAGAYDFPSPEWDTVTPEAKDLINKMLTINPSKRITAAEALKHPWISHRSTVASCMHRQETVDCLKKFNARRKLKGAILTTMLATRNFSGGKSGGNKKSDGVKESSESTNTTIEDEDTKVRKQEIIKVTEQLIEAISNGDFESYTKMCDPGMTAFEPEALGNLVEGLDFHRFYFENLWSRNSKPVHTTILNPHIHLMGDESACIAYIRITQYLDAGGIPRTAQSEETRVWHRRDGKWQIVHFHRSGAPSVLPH
Read-out: enzyme activity
Mode: inhibitor
Tested at: 10 µM
| Compound | inhibition [%] |
| --- | --- |
| OC[C@@H](O)[C@@H](O)[C@H](O)[C@H](O)CO | 0.11 |
| Nc1nc(=O)n([C@H]2C[C@H](O)[C@@H](CO)O2)cc1CO | -18 |
| CC(O)(P(=O)(O)O)P(=O)(O)O | -2 |
| O=C(O)Cc1ccc(-c2ccccc2)cc1 | 2 |
| CCc1ccc(C(=O)C(C)CN2CCCCC2)cc1 (stereo not shown) | -2 |
| O=c1c(-c2ccc(O[C@@H]3O[C@H](CO)[C@@H](O)[C@H](O)[C@H]3O)cc2)coc2cc(O)cc(O)c12 | -7 |
| C=C[C@]1(C)C[C@@H](OC(=O)CS[C@@H]2CC[C@@H](N)C[C@H]2O)[C@]2(C)[C@H](C)CC[C@]3(CCC(=O)[C@H]32)[C@@H](C)[C@@H]1O | 2 |
| CC(=O)OC(C)C[N+](C)(C)C (stereo not shown) | 18 |
| CC1CNc2c(cccc2S(=O)(=O)N[C@@H](CCCN=C(N)N)C(=O)N2CC[C@@H](C)C[C@@H]2C(=O)O)C1 (stereo partly shown) | -3 |

Series 3
Cell line: mouse MPNST tumor cells
Method: high-content nuclear imaging
Refers to: cell number
Tested at: 10 µM
Time: 12 h
Setting: mean of 2 replicates
Reference: plate mean
Direction: higher = more cells
| Structure (SMILES) | nuclei count |
| --- | --- |
| CCc1cccc(CC)c1NC(=O)CN(CC(=O)O)CC(=O)O | 1.01 z-score |
| NS(=O)(=O)c1c(Cl)ccc(NC(=O)Nc2cccc(Cl)c2Cl)c1O | -0.199 z-score |
| CCS(=O)(=O)N(Cc1cccnc1)c1cccc(-c2ccc(C#N)cc2)c1 | -0.292 z-score |
| CC(=O)OCC1=C(C(=O)O)N2C(=O)[C@@H](NC(=O)Cc3cccs3)[C@H]2SC1 | 2.01 z-score |
| COc1ccc(OC(F)(F)F)cc1CN[C@H]1CCCN[C@H]1c1ccccc1 | -4.74 z-score |
| CC(=O)c1cc(-c2cc(C(=O)NC3CC3)ccc2C)c2ncccn12 | -2.16 z-score and -3.32 z-score |
| Cn1ncc2c(N3CCOCC3)nc(-c3cccc(O)c3)nc21 | -0.79 z-score |
| Cc1ccc(S(=O)(=O)c2ccc([N+](=O)[O-])o2)cc1 | -4.92 z-score |
| O=C(CCCN1CCN(c2ccccn2)CC1)c1ccc(F)cc1 | 0.425 z-score |
| O=C(Nc1ccc(S(=O)(=O)C(F)(F)F)cc1)C1=CCN(c2ncccc2C(F)(F)F)CC1 | 1.87 z-score |

Series 4
SMILES: CO[C@H]1CC[C@H](CNc2ccc(S(=O)(=O)NC(=O)c3ccc(N4CCN(CC5=C(c6ccc(Cl)cc6)CC(C)(C)CC5)CC4)cc3Oc3cnc4[nH]ccc4c3)cc2[N+](=O)[O-])CC1
Read-out: cell-free assay
Method: competition with immobilised ligand
Tested at: 1 µM
| target | remaining binding [%] |
| --- | --- |
| WNK3 (Homo sapiens, UniProt Q9BYP7) | 100 |
| BMP2K (Homo sapiens, UniProt Q9NSY1) | 94 |
| EGFR (Homo sapiens, UniProt P00533, T790M) | 98 |
| MAP3K6 (Homo sapiens, UniProt O95382) | 93 |
| MAP3K15 (Homo sapiens, UniProt Q6ZN16) | 100 |
| AKT2 (Homo sapiens, UniProt P31751) | 80 |
| PIK3CA (Homo sapiens, UniProt P42336, Q546K) | 100 |

Some of these lines once more (series 1):
| target | remaining activity [%] |
| --- | --- |
| NEK1 (Homo sapiens, UniProt Q96PY6) | 102 |
| ULK3 (Homo sapiens, UniProt Q6PHR2) | 112 |
| GRK7 (Homo sapiens, UniProt Q8WTQ7) | 104 |
| TEK (Homo sapiens, UniProt Q02763) | 99 |
